Assay results collected from several papers.
A part holds a random share of what one study measured. Positions count from the first letter of the parent shown.

Block 1 — technique: protein-binding microarray; molecule type: double-stranded DNA, one strand shown; medium: in vitro; concentration: 2200 nM top; setting: 60-bp whole probe; together with: salmon DNA 0.4 mg/ml; baseline: random background probes; reading: higher = stronger binding; shared flanks, not repeated: GCCTAGCAC … GTCTTGATTCGCTTGACGCTGCTG
Target: Interferon regulatory factor 7, full length, phosphomimetic (IRF7, Homo sapiens, UniProt Q92985, residues 1-503, S471D/S472D/S475D/S476D/S477D/S483D/S484D/S487D)
Target sequence (chain): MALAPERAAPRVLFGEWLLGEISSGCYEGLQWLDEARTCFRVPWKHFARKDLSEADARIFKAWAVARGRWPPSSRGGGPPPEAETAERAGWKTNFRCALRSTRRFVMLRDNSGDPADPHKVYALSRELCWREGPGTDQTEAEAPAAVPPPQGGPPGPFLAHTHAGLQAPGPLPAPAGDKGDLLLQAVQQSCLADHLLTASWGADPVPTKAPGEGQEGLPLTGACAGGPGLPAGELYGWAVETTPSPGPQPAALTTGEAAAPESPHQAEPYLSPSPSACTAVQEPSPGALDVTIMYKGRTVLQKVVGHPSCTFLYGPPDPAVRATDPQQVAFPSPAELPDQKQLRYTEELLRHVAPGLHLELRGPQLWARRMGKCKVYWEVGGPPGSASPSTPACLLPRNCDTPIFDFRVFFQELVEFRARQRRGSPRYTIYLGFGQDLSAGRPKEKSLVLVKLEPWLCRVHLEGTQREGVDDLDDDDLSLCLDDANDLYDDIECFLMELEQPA
Strand | fitted relative affinity [z-score]
TTAGGTATCCTTTGCCTTTAGTGCTAG | 0.793
TTAGGAATCGGACTGGGTTAGTGCTAG | -0.414
TAAGGACTGGGACTGGGTTAGTGCTAG | -0.74
AAGTTTCTCCTTTCCAAATAGTGCTAG | 4.28
TTAGGACTGGACTATTGGTTAGTGCTA | -0.487
GACGGTTTCGACACTGGGGCCGTGCTA | 2.31
TTAGGTATCGCCACTGGGTTAGTGCTA | -0.0274
CAGTTTATTTATTTTTACATGTGCTAG | 1.42
AACGGACTGCTACTGCTGACGTGCTAG | -0.226
TTAGGTATCGACACAGGGTTAGTGCTA | -0.199
GACTAACTGGGGACTGGAGACGTGCTA | -0.194
TTATGTATCGGGACTGGGTTAGTGCTA | 0.209
TTAGGTTCCCGTTTCGGTTAGTGCTAG | 5.38
TTTGGTTTCGACTTTCGGTTAGTGCTA | 11.9
GACGGTCTCGGTTTCGAGACGTGCTAG | 2.88
TCATTTATGGTATTTTTACTGTGCTAG | 1.06
TTAGATTTCGCGTTTCGATTAGTGCTA | 3.45
AACGAACTGAGTTTCGAGACGTGCTAG | 2.05
TTAGGTTCCGGTTTTGGTTAGTGCTAG | 3.83
TTAGGCTTCGGGTATCGGTTAGTGCTA | 0.285
ACACGGCTCTAAACTCATGTAGTGCTA | 0.0553
CCACTTTCCATTTCTGTTTTTGTGCTA | 11.2
TTAGGACTGCTTTTCATTTAGTGCTAG | 1.48
TTAGGTTTCCTTTTCCCTTAGTGCTAG | 5.45
TTAGATATCGGGACTGGATAAGTGCTA | -0.393

Block 2 — technique: RNAcompete; molecule type: RNA; medium: in vitro; concentration: 20 nM; setting: 7-mer, probes averaged, single round; baseline: mean of 7-mers; reading: higher = stronger binding
Target: PABPC1L2, full length, GST fusion (mouse, UniProt A0ABA7IW68)
Residues (chain): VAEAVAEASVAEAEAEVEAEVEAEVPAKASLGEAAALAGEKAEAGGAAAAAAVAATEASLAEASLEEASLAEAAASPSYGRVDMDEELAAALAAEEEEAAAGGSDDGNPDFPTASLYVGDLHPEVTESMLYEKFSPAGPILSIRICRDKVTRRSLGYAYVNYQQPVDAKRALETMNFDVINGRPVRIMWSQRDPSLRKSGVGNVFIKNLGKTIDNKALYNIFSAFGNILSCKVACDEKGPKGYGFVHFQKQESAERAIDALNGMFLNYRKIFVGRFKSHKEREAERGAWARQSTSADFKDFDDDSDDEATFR
Strand | 7-mer Z-score
ACCGGGA | 0.0859
CCUGAUG | -0.19
AAGUUAA | 0.119
UUGCCAU | -0.233
AUCACCC | -0.313
ACAGCCU | -0.175
AGUUGCG | -0.0989
CAACGAG | -0.0518
AUGGCAU | 0.0424
CCCGUCU | -0.472
GACUUAU | -0.139
GAUUCCU | -0.324
ACCAGAU | -0.108
CGCAGCU | -0.18
AUGUUGA | -0.0899
UAGGUCG | -0.00652
GAAUGUA | -0.0989
UCGAGAA | 0.184
CCCAUGU | -0.365
CGUAGUA | -0.32

Block 3 — target: CCNE2, cyclin fold, Cln2 fusion (human); technique: yeast growth competition, sequencing; medium: yeast; setting: weak parent motif; baseline: not given; reading: higher = stronger binding
Starting sequence: ORC1 docking peptide (human); PRARKRLELGNLG
Variant | normalised enrichment score
K5C | 0.356
G13N | 0.928
G13Q | -0.0484
G10M | 0.933
R2M | 1.22
R2G | -0.13
N11G | 1.15
R4I | 0.0334
L7F | 0.0939
P1N | 1.15
L12N | 0.775
K5Y | 0.38
G13P | 0.327
L9M | 0.815
R2I | 1.65
L9I | 0.521
L12D | -0.176
G10N | 0.556
R2H | 0.659
A3C | 1.71
E8Y | 0.818
L7N | -0.0222
R4A | 0.167
L12C | 0.867
K5R L9F | 5.9

Block 4 — technique: RNA Bind-n-Seq; molecule type: RNA; medium: in vitro; concentration: not given; baseline: input RNA pool; reading: higher = stronger binding
Target: RING finger protein unkempt homolog, zinc fingers 1-6, GST-SBP tag (UNK, Homo sapiens, UniProt Q9C0B0, residues 30-357)
Sequence of UniProt Q9C0B0 (30-357, looked up): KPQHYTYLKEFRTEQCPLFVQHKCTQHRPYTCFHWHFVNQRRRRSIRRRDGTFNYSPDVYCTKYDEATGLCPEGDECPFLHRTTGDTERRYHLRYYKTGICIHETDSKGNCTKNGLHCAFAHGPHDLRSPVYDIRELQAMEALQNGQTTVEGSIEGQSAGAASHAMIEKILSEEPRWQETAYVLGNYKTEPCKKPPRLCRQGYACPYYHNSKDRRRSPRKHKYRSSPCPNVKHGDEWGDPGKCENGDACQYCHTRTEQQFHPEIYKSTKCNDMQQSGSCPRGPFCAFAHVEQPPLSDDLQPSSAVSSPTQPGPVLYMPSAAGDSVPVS
Setting: RNA with constant flanks, human and mouse sites, ends assumed
Strand | bound/input enrichment
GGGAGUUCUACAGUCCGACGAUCAGUUUCAGUAUCUCUGGCUGGAGUAUUGACUCACAAAAAGAACCAUCCAGAGAGCACAGUUAGCAUUAUGUCCCUGUGUGUGAGUGCUGUUACUUACGCCGUUUUGUAUCGUACAGUACACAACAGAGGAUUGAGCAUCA | 0.32 ratio
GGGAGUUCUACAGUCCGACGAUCCUGAGGGCUCCAUGCUGAAGGCUCCCAUUUUCAGUUCCCUCCUGCCCAGGACUGCAUUGUUUUCUAGCCCCGAGGUGGUGGCACGGGCCCUCCCUCCCAGCGCUCUGGGAGCCACGCCUACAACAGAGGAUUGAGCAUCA | 0.247 ratio
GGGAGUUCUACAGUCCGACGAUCGUGAAGUACGCGUAUUAUGACACUGAACGCAUUGGAGUUGACCUCAUCAUGAAGACGUGUUUUAGCCCCAACCGGGUGAUUGGACUCUCAAGUGACUUACAACAAGUGGGAGGGGCCUCACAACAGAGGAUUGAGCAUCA | 0.119 ratio
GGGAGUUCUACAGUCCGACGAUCUCAAAGUUCAUCUCUCAUUCAGCAUGAGAGAACUCAUACUGGAGAGAAGCCCUAUGAAUGUAAUGAAUGUGGGAGAGCCUUCCGAAAAAAAACCAACCUGCAUGAUCAUCAGAGAAUUCACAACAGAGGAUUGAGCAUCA | 0.168 ratio
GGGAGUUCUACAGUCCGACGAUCUAUGAGACAGUGGUUGGCCCUGGGGAUGUUCUUUACAUCCCAAUGUACUGGUGGCACCAUAUAGAGUCAUUACUAAAUGGGGGAAUUACCAUCACUGUGAACUUCUGGUAUAAGGGGGCUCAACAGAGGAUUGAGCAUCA | 0.214 ratio
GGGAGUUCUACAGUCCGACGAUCAAAAAGGACAAGAAGACCAAAAAGACGUUCUUUGAAGAGCUGGCAGUAGAGGACAAACAAGCUGGGGAAGAGGAAAAAUUGCAGAAGGAGAAGGAGCAGCAACAGCAACAGCAGCAACAGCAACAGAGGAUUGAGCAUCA | 0.459 ratio
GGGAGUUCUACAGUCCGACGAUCAUAGAUGAAAUUGAUGUAGAUCAGGAAGGAAUUGCAGAAAUGAUGCUGGAUGAAAAUGCUAUAGCUCAAGUUCCACGCCCUGGAACGUCUUUGAAACUCCCUGGAACUAAUCAGACAGGACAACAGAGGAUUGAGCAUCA | 0.483 ratio
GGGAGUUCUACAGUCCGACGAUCCCUACUAUAAACAACUCAGGGCAGUAUUCUCGAUAUCCUUACAGUAACCUAAAUCAGGGAUUAGUUAACAAUACAGGGAUGAAUCAAAAUUUAGGCCUUACAAAUAAUACUCCAAUGAAUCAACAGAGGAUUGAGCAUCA | 4.76 ratio
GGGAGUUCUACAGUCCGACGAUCGAGCAAUUUGAGAGGUACCUGCAUGACGAGAGCGGCUUGAACAGGCGGCACAUCAUUGAUAAUAGGGUGCAUUGUUGCUUUUACUUUAUUUCACCUUUUGGACAUGGACUUAAGCCCUUACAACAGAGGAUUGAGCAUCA | 0.251 ratio
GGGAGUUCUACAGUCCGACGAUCCUCUUAAAAGACUAUGAAGAUAAAGUCCGAGAGGAGUAUGAGCAAAUCCUCAGUACCAAACUCGCAGAACAGUAUGAAUCGUUUGUGAAAUUCACGCAUGAUCAGAUCAUGCGGCGAUACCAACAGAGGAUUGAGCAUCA | 0.148 ratio
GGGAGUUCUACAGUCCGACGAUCCCUUCCCUUUGCCUUUUAAAUUGUGGUUAAAAAAAAAGAAAAAAAAAGGCACAUAAAGCUGAGCACCUUAACCAUUUUUUAAGCGUAUGGUAGUGUUGACUAUAUUUGCAUUGUUGCGCACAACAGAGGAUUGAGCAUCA | 0.448 ratio

Block 5 — technique: aptamer microarray, sandwich; molecule type: DNA with 2'F-ANA; medium: in vitro; concentration: 200 nM; together with: Cy3 exosite-II aptamer, 400 nM; reading: higher = stronger binding; strand: GGTTGGTGTGGTTGG
Target: Prothrombin, mature alpha-thrombin (F2, Homo sapiens, UniProt P00734)
Setting: whole 15-mer aptamer, many near background
Modification | mean fluorescence intensity [a.u.]
2'F-ANA at 1 3 4 6 7 10 11 12 | 73.5
2'F-ANA at 1 4 8 9 10 12 | 62.7
2'F-ANA at 1 3 5 6 7 8 9 12 13 14 | 97.6
2'F-ANA at 2 4 7 8 9 11 12 13 15 | 340
2'F-ANA at 1 5 6 7 8 10 11 12 13 14 | 47.7
2'F-ANA at 7 12 13 14 | 249
2'F-ANA at 2 4 6 10 12 13 14 | 61
2'F-ANA at 4 6 7 8 9 10 12 13 14 | 60.4
2'F-ANA at 2 3 8 9 14 15 | 430
2'F-ANA at 4 5 6 7 8 11 12 15 | 175
2'F-ANA at 3 5 11 12 14 | 65.1
2'F-ANA at 1 3 5 6 7 9 10 11 14 | 50
2'F-ANA at 1 6 7 8 9 11 12 13 14 15 | 69.8
2'F-ANA at 2 3 5 8 10 12 13 14 15 | 50.1
2'F-ANA at 1 6 10 11 13 14 15 | 57.4
2'F-ANA at 2 7 8 10 11 12 13 14 | 83.7
2'F-ANA at 1 3 4 7 10 11 12 15 | 78.1
2'F-ANA at 1 4 8 9 10 11 15 | 52.6
2'F-ANA at 1 5 11 12 13 15 | 66.7
2'F-ANA at 1 3 4 6 9 10 12 13 | 72.9
2'F-ANA at 1 4 8 10 13 14 15 | 45.9
2'F-ANA at 3 4 5 6 7 10 11 13 14 | 59
2'F-ANA at 2 4 6 11 13 15 | 146
2'F-ANA at 2 5 7 8 10 11 14 | 105
2'F-ANA at 1 2 6 7 8 12 15 | 394

Block 6 — technique: protein binding microarray; molecule type: double-stranded DNA, one strand shown; medium: in vitro; concentration: not given; baseline: not given; reading: higher = stronger binding
Target: Histone acetyltransferase KAT6A, winged helix 2, GST fusion (KAT6A, Homo sapiens, UniProt Q92794, residues 85-181)
Setting: 8-mer, flanks averaged, mean of 2 arrays, mostly near background
Construct (chain): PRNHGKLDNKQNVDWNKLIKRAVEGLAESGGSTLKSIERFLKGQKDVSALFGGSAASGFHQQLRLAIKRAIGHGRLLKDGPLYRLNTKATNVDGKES
Strand | E-score
CAACCACA | 0.0763
CGAGGAGC | 0.141
AAGGAGAA | -0.17
GATCAAGA | 0.147
AGGTCCTG | 0.0449
AGCGTACT | -0.168
CAGGGGTA | -0.148
ATGCGTTA | 0.0428
CTACAAAA | 0.149
ATCACCTC | -0.0959
GACAAACA | -0.171
CGCAAACC | 0.218
AAGGTTGT | 0.00315
ACGAACGA | 0.0111
ACTATGCG | -0.0564
TGCTTTAA | 0.0363
AGGCCGTC | -0.0127
CCTAGATA | -0.188
AGATCATC | -0.0485
CGCATGAG | -0.0391
CGACCCGC | 0.135
ACAACACT | 0.0494
